Measurements pooled from the literature.
Every numbered part comes from another study and shows a few of its results, in no order.

Series 1
Target: RNA binding protein fox-1 homolog 2, RRM domain, GST-SBP tag (RBFOX2, Homo sapiens, UniProt O43251-10, residues 100-194)
Method: RNA Bind-n-Seq
Form: RNA
Medium: in vitro
Tested at: 365 nM
Setting: natural RNA segment, single round, ends assumed
Baseline: no-protein control
Reading: higher = stronger binding
Endpoint: RBNS enrichment (R)
Constant ends, left off below: GGGAGUUCUACAGUCCGACGAUC … UGGAAUUCUCGGGUGCCAA
Target sequence (chain): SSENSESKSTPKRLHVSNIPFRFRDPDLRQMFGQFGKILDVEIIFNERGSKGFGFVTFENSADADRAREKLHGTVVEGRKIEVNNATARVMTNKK
CAGCCCACGCUGGUCUGUCCCCAUGCCUUCCCAGGGCUUCUUCAUGUCGGAUGCACCCAAGUCCUUAGCCCAGCUGUGCCACCUGCAGGAGUUCGCUCUUGCGUUUCUUC: 0.405
AUAAUGGGAUUUUCUUUUCUUUUCUCUGGUAAUAUUGACUUGUAUAUUUUAAGAAAUAACAGAAAGCCUGGGUGACAUUUGGGAGACAUGUGACAUUUAUAUAUUGAAUU: 1.86
UUUAUUUGUUUCUGGUUUAGCCUCAAGGGCUGGAAGCUGGGCCUGUAUUGAAUAAACAGAAACCCAGACAGAAUGCAUGGGCUCCUUGCAAUGGCUCAGACCCUUUGCAG: 2.02
CCUCCACACCUCCCCGUAGAGGAGCGCCGAGCCUCGGCUCCUGCCGGCGGGAGCCCCCGAAUGCUGCACCCAGCCACCCAGCAGAGCCCGUUCAUGGUUGAUCUCCACGA: 0.461
GCAUAGCAGUCAUUUGGAACGAUCUCGUGGGGUGGGACUAAGCCAUAAUGAUGUGUCUGGCUCAAGCAGCAAUGCUGUCCCUGCUCAGAACUGUGGUCUCUGUGGAGAAC: 0.387
CUAACAUACUCACUGUGAACCCAGCCUAUUGCAAAAAUAAAAUCUUUUUAUAAUAUUAUCUAUGGGAUGUCAGCACAAUAUAACACUCUGGGAAGAAGUGGAGUUUUUUG: 0.787
GCAUGGUGGGGCCCCUGACCAACCUACACAAGUUCCCUCCCACAAGUGGACAUCAGUGUCUUCUCUGUGAGGCAUCUGGCCAUUCGCACUCCCUGGUGUGGUCAGCCUCU: 9.14
AAGACUGAUACAAGUAACCUCCCCUCUGCUUAGGUGUCACUUUCUCAGCAUAUCAAGUUUAGGCAGCAAGGGAAAGGAAUAUGGGUCAGUUCUCAAAUGUCAAUGUAGAU: 0.457
CUUGGUUCACCUUGCCUGUCGCUAGCAAGCAUCUGGUUCAGCGGAAAUGGGAUGUGAGAAUGAUGAAACCCGACAGAAGUAUCUCAGCCUGCAGUCAGUUAUUAUGUAUA: 2.11
GCUUCAAACUUUAUUGCUUCGAUUUUUGUGGCCCUAUAUUUAGUAUUAGCACACCUUGGUUUUGAGAAAAAAACAGGGCUUUGUUUUUUUAAAUAAUUACUAGCAACUCU: 0.457
UCUUGUGUUGGCUGUGGCAGGCCAGCUGUGGUUUUCUUUUGCCAUGACAACUUCUAAUUGCCAUGUACAGUAUGUUCAAAGUCAAAUAACUCCUCAUUGUAAACAAACUG: 0.357
UUCAUAAUCGGGUAUUGCAUUUUGCCUUCCCUGUCCAUACCUCAAAUUGAUUGAUACCUCAGUUUAAUUCAGAGAGGUUCGCUAAGUGUUGGAUUCUAGUUGUGGUUUGA: 0.692

Series 2
Target: Sal-like protein 4, full length isoform B (SALL4, Homo sapiens, UniProt Q9UJQ4-2, residues 1-616)
Method: universal PBM
Form: double-stranded DNA, one strand shown
Medium: in vitro
Tested at: not given
Setting: 8-mer, flanks averaged, mean of replicates
Reading: higher = stronger binding
Endpoint: E-score
Target sequence (chain): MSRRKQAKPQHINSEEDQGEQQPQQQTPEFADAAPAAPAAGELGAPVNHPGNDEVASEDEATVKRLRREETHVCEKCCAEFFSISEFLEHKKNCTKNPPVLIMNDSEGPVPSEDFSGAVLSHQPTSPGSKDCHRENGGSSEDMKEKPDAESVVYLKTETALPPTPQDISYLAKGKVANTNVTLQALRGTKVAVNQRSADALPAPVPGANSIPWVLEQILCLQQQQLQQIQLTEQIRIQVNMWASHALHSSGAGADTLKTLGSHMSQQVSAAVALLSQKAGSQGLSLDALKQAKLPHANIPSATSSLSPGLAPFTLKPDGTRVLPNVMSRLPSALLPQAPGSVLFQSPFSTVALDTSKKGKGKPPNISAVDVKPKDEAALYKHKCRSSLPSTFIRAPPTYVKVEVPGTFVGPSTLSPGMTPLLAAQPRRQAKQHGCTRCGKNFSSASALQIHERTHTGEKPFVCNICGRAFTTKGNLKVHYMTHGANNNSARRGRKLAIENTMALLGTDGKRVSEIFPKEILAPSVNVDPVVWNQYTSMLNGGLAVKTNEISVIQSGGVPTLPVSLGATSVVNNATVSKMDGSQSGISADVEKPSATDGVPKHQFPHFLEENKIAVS
GAACCCGC: -0.233
CATTTCAC: 0.0629
CGTCAAAG: -0.0415
CCCTTCCG: -0.228
ACGGCTCC: -0.134
GGCTCGTA: -0.0622
ACCCACCG: -0.172
CTCGCCGA: -0.313
GCTAATCC: -0.0161
ATAAGTGC: 0.153
TAAAAGCA: 0.149
ACCCCCTA: -0.084
CCATATCC: 0.097
GTGGACAC: -0.0981
GGTGGCAA: -0.162
GAGCTCTA: -0.0965
CACATTGC: 0.0201
ACCGCTAC: -0.208
GGCAGCTA: -0.189
AACGAATG: -0.00097
CACATTCA: 0.0815
CTGGTGCA: -0.192
CTCAACGA: -0.0488
TATTCAGA: 0.184
AGGCAGTG: -0.0705

Series 3
Target: Fragile X messenger ribonucleoprotein 1, C-terminal low-complexity region (Fmr1, Mus musculus, UniProt P35922)
Method: RNA Bind-n-Seq
Form: RNA
Medium: in vitro
Tested at: 200 nM
Setting: whole 134-nt RNA, ends assumed
Together with: 150 mM LiCl
Baseline: input library
Reading: higher = stronger binding
Endpoint: log2 enrichment
Each molecule: 7-deaza-guanosine replaces G
Constant ends, left off below: GGGAGUUCUACAGUCCGACGAUC … UGGAAUUCUCGGGUGUCAAGG
UAACUUUAGAGGAGGAUCUGAUGGAUAUGGCAGUGGACGUGGAUUAGGGGAUGGCUAUAAUGGGUAUGGAGGAGGACCUGGAGGUGGCAA: 0.381
UCAAGUCCUGUGCUACACAUCGUAUGUACCGAAUCGGGGAGGGGUGGGGAGGGGAAAGUAUUAUGUUACGCCGUUCGGAUCUGCACUUCC: -0.0787
ACCAUGCAGGUGGGCAUCUUUGGGAAGUGGGGCAAGGGGGGGAUAGGGAGGGGAGUAACACUUUGGGAACAGGUGGUCCCAGGUCGUUUC: 0.822
GCAGGAAGUAAAAACAAAUGGAAAUGCUUCGGAUAGUGGCAGGGGUGGGGGCUGCUAAGGAAAGGGUGGGAUGGGAGUGGGUAAAGAGUU: 1.72
AGUCCUGUGCUACACAUCGUAUGUACCGAAUCGGGGUUUUGGGGUUUUGGGUUUUGGAAAGUAUUAUGUUACGCCGUUCGGAUCUGCACU: -1.51
CCUGUGCUACACAUCGUAUGUACCGAAUCGGGGUUUUUUUGGGGUUUGGGGUUUUUGGGGAAAGUAUUAUGUUACGCCGUUCGGAUCUGC: -0.995
CUCAAGUCCUGUGCUACACAUCGUAUGUACCGAAUCGGGGCCGGGCCGGCCGGGAAAGUAUUAUGUUACGCCGUUCGGAUCUGCACUUCC: 0.861
ACCAUGCAGGUGGGCAUCUUUGGGAAGUGGGGCAAGGGGGGGAUAGGGAGGGGGGUAACACUUUGAAAACAGGUGGUCCCAGGUCGUUUC: 1.3
UGGGAGGUGGAUUUUGUUUAUUUUUUUAGCUCAUUUCCAGGGGUGGGAAUUUUUUUUUAAUAUGUGUCAAGAAUAAAGUUGUUUUUGAAA: -0.0809
CCUCAAGUCCUGUGCUACACAUCGUAUGUACCGAAUCGGUGGUGGGGUGGGGAAAGUAUUAUGUUACGCCGUUCGGAUCUGCACUUCCAG: 0.304
UAGGAAAACCGUCUUCAGAUACAGUCCCUAAGCCCAAGAGAGCCCCAAAACAGAAGAAAGUAGUAGAGGCUGUAAACUCUGACUCGGAUU: 1.11

Series 4
Target: Centromere-binding protein 1, full length, N-terminal tag (CBF1, Saccharomyces cerevisiae, UniProt P17106, residues 1-351)
UniProt P17106, sequence (whole entry, looked up): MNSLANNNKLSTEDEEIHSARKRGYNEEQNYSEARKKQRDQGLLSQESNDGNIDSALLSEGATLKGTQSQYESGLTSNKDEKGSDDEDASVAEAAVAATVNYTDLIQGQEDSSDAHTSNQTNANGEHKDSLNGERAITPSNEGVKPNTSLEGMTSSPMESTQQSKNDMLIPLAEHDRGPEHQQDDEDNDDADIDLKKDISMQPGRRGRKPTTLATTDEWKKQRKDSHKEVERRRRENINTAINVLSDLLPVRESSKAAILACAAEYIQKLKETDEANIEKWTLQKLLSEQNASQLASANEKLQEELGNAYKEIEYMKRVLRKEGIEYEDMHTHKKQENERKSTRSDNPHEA
Method: protein-binding microarray
Form: double-stranded DNA, one strand shown
Medium: in vitro
Tested at: 0.8 µM
Setting: whole 60-bp probe, no competitor
Reading: higher = stronger binding
Endpoint: fluorescence intensity
Constant ends, left off below: … GTCTTGATTCGCTTGACGCTGCTG
CTAAATAATAACAATCAACTGAACACAACATTATTC: 510 a.u.
CTAATCCTAGAAAAACACGTTTGCTCACTCGATTTC: 494 a.u.
GAACCGATTGATAGTCATGATCAGATTCTTTATTAG: 596 a.u.
CTAAAACCATCACAAAATGTCACGTGCATGTTATTC: 19500 a.u.
CTATTGGAAGAGAAACAGCTGATGATTCTGGCATTC: 581 a.u.
GAAACCAATATATGTCATGAGAAGTGGCTTGTATAG: 537 a.u.
GAAACATTATCCTAAAACGTGGCGTTACTGACTTAG: 558 a.u.
GAACACAATCATCATGATGTTTTAGAGCTTCATTAG: 513 a.u.
GAAAAAAATATTGGTGGTGCAGTTATGGACTGATAG: 531 a.u.
GAACAGTACAAGATCCATGTGCATTACAACACATAG: 593 a.u.
CTAATAACATAGGGACACGTTCAGGCAATTGTCTTC: 538 a.u.
GAATTTTATCAGAGTCACGTGACATATATCACTTAG: 55700 a.u.
CTAAGGTTCCTTCAGCATCAGAACAGATCACAATTC: 544 a.u.
CTAATATGGCCACTCAACGTGCCCAAGGAAAGTTTC: 524 a.u.
CTAACACTAAACGGTTGTCAGGAGAAAAATTGATTC: 514 a.u.
GAACGTGATAACAATCACACTGTACGGCTGATCTAG: 650 a.u.
CTATCGGTCTTGGGTCACGTGCGGCGACGCGGATTC: 22400 a.u.
CTATGCCAGAAACGTGACGTGAAATACCTACTATTC: 3940 a.u.

Series 5
Target: Histone acetyltransferase KAT6A, winged helix 1, GST fusion (KAT6A, Homo sapiens, UniProt Q92794, residues 1-85)
Method: protein binding microarray
Form: double-stranded DNA, one strand shown
Medium: in vitro
Tested at: not given
Setting: 8-mer, flanks averaged, mean of 2 arrays, mostly near background
Baseline: not given
Reading: higher = stronger binding
Endpoint: E-score
Residues (chain): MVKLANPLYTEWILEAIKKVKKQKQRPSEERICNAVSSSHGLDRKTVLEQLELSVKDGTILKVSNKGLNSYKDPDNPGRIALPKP
GCCAAGGC: -0.00797
CACCGGCA: 0.269
CTGGCTAC: -0.11
AACCGAAA: -0.0878
ACCACTAG: -0.225
ATCTCAAG: -0.27
ACATCTAG: -0.16
ACCCGCAT: 0.226
CTTATCCA: -0.229
ATACAAAC: -0.0677
CCGTGTCG: 0.323
GTGGACAA: -0.0778
CCTTAAGG: -0.271
ATTTCCAA: -0.237
CAGCCGCC: 0.347
AACCTTCC: 0.102
ACGAGCGC: 0.314
GTAGACCA: -0.1
GTTTATTA: 0.0628
ACCAAAGC: 0.0287
GATCCTAA: -0.0729
CAACCAAC: -0.137
ATCGTCCA: -0.0454
GCATAGGA: -0.0526

A few entries again (series 4):
CTATGCCAGAAACGTGACGTGAAATACCTACTATTC: 3940 a.u.
CTAAAACCATCACAAAATGTCACGTGCATGTTATTC: 19500 a.u.
GAAACATTATCCTAAAACGTGGCGTTACTGACTTAG: 558 a.u.
GAACCGATTGATAGTCATGATCAGATTCTTTATTAG: 596 a.u.
GAAAAAAATATTGGTGGTGCAGTTATGGACTGATAG: 531 a.u.
